Measured values of several laboratories.
Each line is one published result; not all experiments were run side by side. ± marks the error that the study gave.
Organism: Plasmodium falciparum

Structure (SMILES) | assay | test system | setting | EC50
CCN1CCN(Cc2ccc(Nc3nc4ccc(Oc5ccnc(NC(C)=O)c5)c(C)c4n3C)cc2C(F)(F)F)CC1 | parasite growth, SYBR Green I | Dd2 | 72 h | 2600 ± 400 nM
O=S(=O)(c1ccc(-c2ccc3nccc(Nc4ccncc4)c3c2)cc1)N1CCOCC1 | parasite growth, SYBR Green | W2 | – | 930 nM
C[C@H]1[C@@H](O)O[C@@H]2O[C@@]3(C)CC[C@H]4[C@H](C)CC[C@@H]1[C@@]24OO3 | – | NF54 | 72 h, stage III gametocytes | 11.2 nM
COc1ccc(Nc2ccnc3ccc(-c4ccc(S(=O)(=O)N5CCOCC5)cc4)cc23)cc1C | parasite growth, SYBR Green | TM91C235 | – | 250 nM
COCC(=O)N1CCC[C@H](C(=O)NCc2nc(-c3cccc(OC)c3)cs2)C1 | SYBR Green growth | asexual blood-stage parasites, 3D7 | 72 h | 2100 ± 620 nM
CCn1cc(-c2nc(C)no2)c(=O)c2cc(F)c(N3CCC(C)CC3)cc21 | parasite growth, [3H]hypoxanthine incorporation | 7G8 | 72 h | 10 nM
Cn1nc2c(=O)n(C3CC3)ccc2c1[C@](O)(c1cnc(C(F)(F)F)c(Cl)c1)C(F)(F)F | parasite growth | – | – | 0.45 nM
CCOCC(=O)N1CC[C@@H](C)[C@H](C(=O)NCc2nc(-c3ccc(C)nc3)cs2)C1 (racemic) | SYBR Green growth | asexual blood-stage parasites, 3D7 | 72 h | 89 ± 19 nM
CCOCC(=O)N1CCC[C@H](C(=O)NCc2nc(-c3ccc(C#N)cc3)cs2)C1 | – | 3D7 | 72 h | 7 ± 3.8 nM
O=C(NCc1nc(-c2ccccc2)cs1)[C@H]1CCCN(C(=O)COCCF)C1 | SYBR Green growth | asexual blood-stage parasites, 3D7 | 72 h | 25 ± 4.5 nM
O=S(=O)(c1ccc(-c2ccc3nccc(Nc4ccc5[nH]nnc5c4)c3c2)cc1)N1CCOCC1 | parasite growth, SYBR Green | W2 | – | 630 nM
CCn1cc(C)c2c([C@@H](O)c3ccc(C(F)(F)F)nc3)n(C)nc2c1=O | parasite growth | 3D7 | – | 200 nM
O=C(NCc1nc(-c2ccccc2)cs1)[C@H]1CCCN(C(=O)CO)C1 | SYBR Green growth | asexual blood-stage parasites, 3D7 | 72 h | 1200 ± 400 nM
CCn1cc(C2CC2)c2c(Cc3ccc(C(F)(F)F)nc3)n(C)nc2c1=O | parasite growth | 3D7 | – | 20 nM
CCN(c1ccc(C)cc1)c1ccc(NC(=O)CN(C)c2ccccc2N2CCCC2=O)cn1 | male gamete formation | NF54 stage V gametocytes | 48 h | 410 nM
Cc1c(-c2n[nH]c3cc(C(F)(F)F)ccc23)c[nH]c1C(=O)NC(C)c1cc(C(N)=O)[nH]n1 (centres unmarked) | parasite growth | 3D7 | – | 2700 nM
N#Cc1cnc(Nc2ccnc3ccc(-c4ccc(S(=O)(=O)N5CCOCC5)cc4)cc23)cn1 | parasite growth, SYBR Green | W2 | – | 820 nM
COCC(=O)N1CCC[C@H](C(=O)NCc2nc(-c3ccc(C)nc3)cs2)C1 | SYBR Green growth | asexual blood-stage parasites, 3D7 | 72 h | 26 ± 6.4 nM
Cn1nc2c(=O)n(C3CC3)ccc2c1Cc1ccc(C(F)(F)F)nc1 | parasite growth | 3D7 | – | 631 nM
COCC(=O)N1CCC[C@H](C(=O)NCc2nc(-c3ccc(C(F)(F)F)cc3)cs2)C1 | SYBR Green growth | asexual blood-stage parasites, 3D7 | 72 h | 27 ± 6.4 nM
O=[N+]([O-])c1ccc(Nc2ccnc3ccc(-c4ccc(S(=O)(=O)N5CCOCC5)cc4)cc23)cn1 | parasite growth, SYBR Green | TM91C235 | – | 560 nM
CCONC(=O)N1CCC[C@H](C(=O)N[C@@H](C)c2nc(-c3ccc(C#N)cc3)cs2)C1 | SYBR Green growth | asexual blood-stage parasites, 3D7 | 72 h | 23 ± 1.5 nM
Cc1cnnc(Nc2ccnc3ccc(-c4ccc(S(=O)(=O)N5CCOCC5)cc4)cc23)c1 | parasite growth, SYBR Green | D6 | – | 1200 nM

For quick reference, copied from above:
Structure (SMILES) | assay | test system | setting | EC50
C[C@H]1[C@@H](O)O[C@@H]2O[C@@]3(C)CC[C@H]4[C@H](C)CC[C@@H]1[C@@]24OO3 | – | NF54 | 72 h, stage III gametocytes | 11.2 nM
O=S(=O)(c1ccc(-c2ccc3nccc(Nc4ccc5[nH]nnc5c4)c3c2)cc1)N1CCOCC1 | parasite growth, SYBR Green | W2 | – | 630 nM
